Measured values of several laboratories.
Compare with care: the assays were run in different laboratories. Values joined by “and” are separate records of one study, mostly repeats; a detail may differ. ± marks the error that the study gave.

Compound	cell line	assay	conditions	scale	quantity	value
CC(=O)N1CCCC[C@H]1C(=O)NC(C)(C)C(=O)N1CCCC[C@H]1C(=O)NC(C)(C)C(=O)NC(C)(C)C(=O)N[C@@H](CC(C)C)C(=O)N[C@@H](C)CC(=O)NCC(=O)NC(C)(C)C(=O)NC(C)(C)C(=O)N1CCCC[C@H]1C(=O)NC(C)(C)C(=O)NCC(=O)N[C@@H](CC(C)C)C(=O)NC(C)(C)C(=O)N[C@@H](CC(C)C)C[N+]1=C2CCCN2CCC1	MCF-10A	cell growth or viability, SRB	48 h		GI50	57 nM
Cc1cc(N)c2ccccc2[n+]1CCCCCCCCCCCCCC[n+]1c(C)cc(N)c2ccccc21	neuroblastoma TICs and skin-derived precursors	sphere formation		relative to: EC50 SKPs over EC50 NB TICs	selectivity ratio	> 50 fold and 59 fold
C[C@@H]1CCC2[C@@H](C)[C@@H](OCCC[P+](c3ccccc3)(c3ccccc3)c3ccccc3)O[C@@H]3O[C@@]4(C)CCC1[C@@]23OO4 (stereo partly drawn)	T24	MTT	72 h	relative to: HUVEC IC50 over T24 IC50	selectivity index	1.67
O=C(O)CCC(NP(=O)(O)OCCC[C@@H](NC(=O)CCC(NC(=O)CCCCCNC(=O)CCCCCNC(=O)c1ccc([18F])cc1)C(=O)O)C(=O)O)C(=O)O (stereo partly drawn)	CWR22Rv1		2 h		surface-bound fraction	8.69 ± 0.94%
CCn1nc(Cl)c2c1-c1cnc(N)c(c1)O[C@H](C)c1cc(F)ccc1-c1nn(C)cc1C2	Ba/F3			relative to: TRKB phosphorylation over ALK viability	selectivity ratio	≥ 22 fold
CC(=O)Oc1ccccc1/C=C/C(=O)Nc1nc(=O)n([C@@H]2O[C@H](C)[C@@H](OC(C)=O)[C@H]2OC(C)=O)cc1F	ASPC1	cell viability, MTT		relative to: NHDF fibroblasts over ASPC1	selectivity index	1.42
CCCCCCCCCn1cc(C(N)(CO)CO)nn1	mouse hippocampal neural stem cells	measured: Map2, Gap43, Mbp, Tuj1	concentration not given, added: Aβ42		mRNA level	increased
CCC[P+](c1ccccc1)(c1ccccc1)c1ccccc1	HCT-116	cell growth or viability, MTT	72 h		GI50	1500 nM
CC12CCC3(CCC(=O)NCCNc4ccnc5cc(Cl)ccc45)C(C)(OOC3(C)O1)O2	HL-60	cell growth or viability, resazurin	10 µM, 48 h		inhibition	0%
CC(C)[C@@H]1NC(=O)[C@H](C)OC(=O)[C@@H](C(C)C)NC(=O)[C@@H](C(C)C)OC(=O)[C@H](C(C)C)NC(=O)[C@H](C)OC(=O)[C@@H](C(C)C)NC(=O)[C@@H](C(C)C)OC(=O)[C@H](C(C)C)NC(=O)[C@H](C)OC(=O)[C@@H](C(C)C)NC(=O)[C@H](C)OC1=O	U-87 MG	cell growth, SRB		relative to: IC50 in HA over IC50 in U-87 MG	selectivity ratio	18
CC(C)CC(O)(CC(C)C)c1cn(C(=O)N2CCCC2)nn1	mouse T-cells	protein abundance, unenriched SILAC proteomics, measured: S100A6	1 nM, 6 h, protein median	relative to: DMSO	SILAC ratio	1.03 ± 0.15
C/C(=N\OCCCN1CCCCC1)c1ccc(C(F)(F)F)cc1	HEK293 expressing human σ1R	store-operated calcium entry, measured: intracellular Ca2+	10 µM		inhibition	inhibited

Excerpt of the above:
Compound	cell line	assay	conditions	scale	quantity	value
CC(=O)Oc1ccccc1/C=C/C(=O)Nc1nc(=O)n([C@@H]2O[C@H](C)[C@@H](OC(C)=O)[C@H]2OC(C)=O)cc1F	ASPC1	cell viability, MTT		relative to: NHDF fibroblasts over ASPC1	selectivity index	1.42
CCCCCCCCCn1cc(C(N)(CO)CO)nn1	mouse hippocampal neural stem cells	measured: Map2, Gap43, Mbp, Tuj1	concentration not given, added: Aβ42		mRNA level	increased
